# Published values collected from several papers.
# Numbered parts are unrelated; each lists some results of a single study.

# Block 1 — cell line: HEK-293T; effect on: pseudovirus infection; technique: FDA-approved drug library screen; organism: VSV pseudotyped with SARS-CoV-2 spike; tested at: 10 µM; time: 16 h; relative to: vehicle-treated
SMILES,GFP-positive cells [%]
Cc1[nH]c(=O)c(C#N)cc1-c1ccncc1,77.7
CC1(C)S[C@@H]2[C@H](NC(=O)Cc3ccccc3)C(=O)N2[C@H]1C(=O)O,78.2
CCn1cc(C(=O)O)c(=O)c2ccc(C)nc21,109

# Block 2 — action: inhibitor; tested at: 20 µM
# Target: Replicase polyprotein 1ab, nsp13 helicase (rep, Severe acute respiratory syndrome coronavirus 2, UniProt P0DTD1)
SMILES,inhibition
CN1CCCC(CC2c3ccccc3Sc3ccccc32)C1 (stereo not shown),0.9%
CCOC(=O)c1ccc(C#Cc2ccc3c(c2)C(C)(C)CCS3)nc1,12%
CCCCC(=O)O[C@H]1CC[C@H]2[C@@H]3CCc4cc(O)ccc4[C@H]3CC[C@]12C,1.07%
CC(C)C(=O)c1c(C(C)C)nn2ccccc12,6.67%
CCn1nc(C)c2c1C(c1ccccc1)=NCC(=O)N2,0.51%
Cc1c(-c2ccc(O)cc2)n(Cc2ccc(OCCN3CCCCCC3)cc2)c2ccc(O)cc12,13.8%
CCN1CCN(c2cc(-c3ccc(F)cc3)c3c(n2)CCCCCC3)CC1,2.46%
COc1ccc2c(c1)c(CC(=O)OCC(C(=O)O)c1ccccc1)c(C)n2C(=O)c1ccc(Cl)cc1 (stereo not shown),4.78%
CC[C@H]1[C@@H](O)[C@@H]2[C@H](CC[C@]3(C)[C@@H]([C@H](C)CCOS(=O)(=O)O)CC[C@@H]23)[C@@]2(C)CC[C@@H](O)C[C@@H]12,7.05%
C[C@H]1COc2c(C3(N)CC3)c(F)cc3c(=O)c(C(=O)O)cn1c23,2.69%
Nc1nc(NC2CC2)c2ncn([C@H]3C=C[C@@H](CO)C3)c2n1,-0.16%

# Block 3 — effect on: enzyme activity; action: inhibitor; tested at: 20 µM; setting: hit confirmation
# Target: Replicase polyprotein 1ab, main protease (rep, Severe acute respiratory syndrome coronavirus 2, UniProt P0DTD1)
SMILES,inhibition
CNS(=O)(=O)C[C@H]1CC[C@H](N(C)c2ncnc3[nH]ccc23)CC1,52.5%
N[C@@H](Cc1cc(-c2ccc(Cl)cc2Cl)cc(CP(=O)(O)O)c1O)C(=O)O,25.4%
O=C1NC(=O)C(c2ccccc2)N1 (stereo not shown),69.8%

# Block 4 — technique: RNA Bind-n-Seq; form: RNA; sample: in vitro; tested at: not given; relative to: input RNA pool; reading: higher = stronger binding
# Target: RING finger protein unkempt homolog, zinc fingers 1-6, GST-SBP tag (UNK, Homo sapiens, UniProt Q9C0B0, residues 30-357)
# Setting: RNA with constant flanks, human-mouse chimeric sites, ends assumed
# All sequences stand within: GGGAGUUCUACAGUCCGACGAUC … CAACAGAGGAUUGAGCAUCA
# Construct (chain): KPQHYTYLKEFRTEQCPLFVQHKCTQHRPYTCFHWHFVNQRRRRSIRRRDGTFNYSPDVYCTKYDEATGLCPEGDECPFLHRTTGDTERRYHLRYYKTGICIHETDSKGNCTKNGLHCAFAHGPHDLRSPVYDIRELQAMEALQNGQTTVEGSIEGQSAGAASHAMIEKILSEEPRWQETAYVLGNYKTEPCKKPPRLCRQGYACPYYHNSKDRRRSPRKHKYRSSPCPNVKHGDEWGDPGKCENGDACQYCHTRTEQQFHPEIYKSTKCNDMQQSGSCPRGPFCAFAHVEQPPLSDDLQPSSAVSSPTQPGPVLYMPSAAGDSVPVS
Strand,bound/input enrichment
GCUCCUCCCCGCUCUGCAGCCUGGGGACACUGGGCUGGGACCAGAAUCCAGCUUUCUUUUAAAACUCUCAGUGUAACUUCUUUUUCUGACAUUUCAUUUUUUUUUUAUAGUGUAUUUUUU,17.8 ratio
UCUUUAAAUGCACUACAACCUUUUCUGACAGUGCUUUAUGGAGUAAAGAUCCACGUUCAAGCUCAAAGAGCAAAGGCUUUGCACGGAGCUCAAACAUCUGAUGAAGAAAGAUUUCUGAGA,0.0662 ratio
CCACCAGGAUCCCAGAAACAUGACUCUUGCUGCCUACAAAGAGAAGAUGAAGGAGCUCCCGCUGGUGUCCUUGUUCUGCUCCUGCUUCCUGGCCGAUCCCCUGAAUAAGUCGUCCUACAA,0.231 ratio
UCUUAACUUAUUCAUUUAACUUAUUUUUAUAGCUAGAUAAAUAUUGUUAGUCUUAGAGAGUAGUUCACAUUUUUUGAAAAGCAUGCUCUCCCUGUCCAUUUGUCUUAUAACAUGACCCAG,26.6 ratio
GCUGAAAAUGAAGAAGAGGCAGCUGAUGUCUGGUACAACCUGGGGCACAUAGCUGUGGGAAUCGGAGAUACAAACUUGGCCCAUCAGUGCUUCAGGCUGGCCCUGGUCCACAACAACCAC,0.161 ratio
CACACACUCUUCUGCGGGACCCUCAUCUUGCAGGCCCGGGCCUAUGUGGGACCGCACGUCCUGGCAGUGGUGACUCGCACAGGGUUCUGCACGGCAAAAGGGGGCCUGGUGAGCUCCAUC,0.117 ratio
UACUACUGAAUCUGUGAUAUUGGCAAUUAUUAUUAUGGCCAGGGUCAUCCCAUGAAGCCUCAUAGAAUCCGGAUGACUCAUAACUUGCUGCUAAAUUAUGGUUUAUACAGAAAAAUGGAA,0.242 ratio
GUUGCCAGGUUCCGGUGCCGUUGGGCUCGGUUCUCUCCUGAGCUACGUGUCUCUACGCUCUCAAUCCGCCAUCCAACAAACAUGGAUCAGGUAAUGCAGUUUGUGGAUGAGCCAAGUCAG,0.0316 ratio

# A few entries again (block 4):
Strand,bound/input enrichment
GCUCCUCCCCGCUCUGCAGCCUGGGGACACUGGGCUGGGACCAGAAUCCAGCUUUCUUUUAAAACUCUCAGUGUAACUUCUUUUUCUGACAUUUCAUUUUUUUUUUAUAGUGUAUUUUUU,17.8 ratio
UCUUUAAAUGCACUACAACCUUUUCUGACAGUGCUUUAUGGAGUAAAGAUCCACGUUCAAGCUCAAAGAGCAAAGGCUUUGCACGGAGCUCAAACAUCUGAUGAAGAAAGAUUUCUGAGA,0.0662 ratio
